# Assay results pooled from the literature.
# ± marks the error that the study gave.
# Mitogen-activated protein kinase 14: Mitogen-activated protein kinase 14 (Rattus norvegicus, UniProt P70618)
# Chain of UniProt P70618 (whole entry, looked up): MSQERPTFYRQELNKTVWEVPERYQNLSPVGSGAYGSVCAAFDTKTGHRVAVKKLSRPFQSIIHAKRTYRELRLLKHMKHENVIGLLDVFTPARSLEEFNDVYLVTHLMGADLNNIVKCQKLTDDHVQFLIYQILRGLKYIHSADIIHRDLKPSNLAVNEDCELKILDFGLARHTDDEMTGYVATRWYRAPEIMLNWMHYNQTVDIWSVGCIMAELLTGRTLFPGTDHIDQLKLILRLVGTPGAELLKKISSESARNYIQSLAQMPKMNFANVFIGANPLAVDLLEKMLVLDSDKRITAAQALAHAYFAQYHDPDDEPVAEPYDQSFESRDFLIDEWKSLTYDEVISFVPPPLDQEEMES
# CTSL: Procathepsin L (CTSL, Homo sapiens, UniProt P07711)
# Chain of UniProt P07711 (whole entry, looked up): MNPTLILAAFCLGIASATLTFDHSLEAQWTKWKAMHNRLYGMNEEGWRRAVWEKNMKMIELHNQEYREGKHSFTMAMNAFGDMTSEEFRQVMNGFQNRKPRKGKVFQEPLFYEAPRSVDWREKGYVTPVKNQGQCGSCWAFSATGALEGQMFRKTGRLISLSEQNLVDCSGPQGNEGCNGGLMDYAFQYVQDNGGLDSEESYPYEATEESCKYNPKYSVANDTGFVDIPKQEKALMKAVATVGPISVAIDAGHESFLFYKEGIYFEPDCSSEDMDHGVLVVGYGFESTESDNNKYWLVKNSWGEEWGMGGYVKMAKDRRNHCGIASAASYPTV
# CA2: Carbonic anhydrase 2 (CA2, Homo sapiens, UniProt P00918)
# BCHE: Cholinesterase (BCHE, Equus caballus, UniProt P81908)
# Chain of UniProt P81908 (whole entry, looked up): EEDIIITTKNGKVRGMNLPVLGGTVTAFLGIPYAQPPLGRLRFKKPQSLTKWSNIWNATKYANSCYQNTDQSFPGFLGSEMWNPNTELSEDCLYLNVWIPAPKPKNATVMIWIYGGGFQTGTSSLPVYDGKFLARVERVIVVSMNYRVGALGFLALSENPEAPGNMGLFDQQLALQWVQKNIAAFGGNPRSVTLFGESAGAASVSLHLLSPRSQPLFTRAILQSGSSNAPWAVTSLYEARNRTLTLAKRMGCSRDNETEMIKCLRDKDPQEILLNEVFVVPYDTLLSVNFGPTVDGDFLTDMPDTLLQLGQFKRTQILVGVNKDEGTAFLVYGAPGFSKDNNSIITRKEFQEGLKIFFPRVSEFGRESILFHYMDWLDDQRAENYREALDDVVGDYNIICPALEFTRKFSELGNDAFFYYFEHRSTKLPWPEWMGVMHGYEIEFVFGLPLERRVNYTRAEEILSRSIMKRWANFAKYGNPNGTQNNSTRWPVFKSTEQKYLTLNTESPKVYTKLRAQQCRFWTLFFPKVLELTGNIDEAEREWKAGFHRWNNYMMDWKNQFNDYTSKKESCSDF
# Chain of UniProt P25084 (whole entry, looked up): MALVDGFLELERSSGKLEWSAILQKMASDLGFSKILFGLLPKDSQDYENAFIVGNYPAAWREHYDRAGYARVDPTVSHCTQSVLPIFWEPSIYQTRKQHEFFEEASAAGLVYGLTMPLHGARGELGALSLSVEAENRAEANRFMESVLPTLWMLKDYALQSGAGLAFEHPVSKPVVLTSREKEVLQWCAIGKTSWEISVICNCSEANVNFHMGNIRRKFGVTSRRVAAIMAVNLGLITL
# Chain of UniProt P0A7E5 (whole entry, looked up): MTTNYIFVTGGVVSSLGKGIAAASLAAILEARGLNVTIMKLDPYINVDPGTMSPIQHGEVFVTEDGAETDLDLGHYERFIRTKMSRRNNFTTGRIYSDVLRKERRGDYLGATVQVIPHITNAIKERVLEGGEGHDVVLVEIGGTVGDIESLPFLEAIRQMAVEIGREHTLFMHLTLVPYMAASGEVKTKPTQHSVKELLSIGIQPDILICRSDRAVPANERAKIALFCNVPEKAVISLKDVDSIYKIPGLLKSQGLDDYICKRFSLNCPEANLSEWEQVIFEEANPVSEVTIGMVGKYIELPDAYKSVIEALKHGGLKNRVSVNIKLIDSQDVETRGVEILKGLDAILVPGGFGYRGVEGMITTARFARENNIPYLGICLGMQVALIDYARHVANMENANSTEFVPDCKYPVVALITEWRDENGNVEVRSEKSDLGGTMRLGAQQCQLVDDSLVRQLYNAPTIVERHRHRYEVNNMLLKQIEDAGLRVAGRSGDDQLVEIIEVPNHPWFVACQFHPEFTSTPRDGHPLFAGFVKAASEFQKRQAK
# Chain of UniProt P10635 (whole entry, looked up): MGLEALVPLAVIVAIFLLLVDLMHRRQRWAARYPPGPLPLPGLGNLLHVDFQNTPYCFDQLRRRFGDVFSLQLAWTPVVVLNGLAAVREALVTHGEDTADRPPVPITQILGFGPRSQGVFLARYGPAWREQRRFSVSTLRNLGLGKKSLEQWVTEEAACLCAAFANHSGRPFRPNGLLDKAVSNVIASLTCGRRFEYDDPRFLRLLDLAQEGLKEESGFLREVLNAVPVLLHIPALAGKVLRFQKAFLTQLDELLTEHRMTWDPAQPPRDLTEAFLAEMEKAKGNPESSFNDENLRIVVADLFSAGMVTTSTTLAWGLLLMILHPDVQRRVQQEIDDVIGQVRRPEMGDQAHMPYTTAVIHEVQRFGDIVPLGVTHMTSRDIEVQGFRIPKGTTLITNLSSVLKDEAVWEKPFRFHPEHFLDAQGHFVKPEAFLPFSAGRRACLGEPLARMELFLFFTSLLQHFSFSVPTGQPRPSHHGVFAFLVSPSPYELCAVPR
# Chain of UniProt P14618 (whole entry, looked up): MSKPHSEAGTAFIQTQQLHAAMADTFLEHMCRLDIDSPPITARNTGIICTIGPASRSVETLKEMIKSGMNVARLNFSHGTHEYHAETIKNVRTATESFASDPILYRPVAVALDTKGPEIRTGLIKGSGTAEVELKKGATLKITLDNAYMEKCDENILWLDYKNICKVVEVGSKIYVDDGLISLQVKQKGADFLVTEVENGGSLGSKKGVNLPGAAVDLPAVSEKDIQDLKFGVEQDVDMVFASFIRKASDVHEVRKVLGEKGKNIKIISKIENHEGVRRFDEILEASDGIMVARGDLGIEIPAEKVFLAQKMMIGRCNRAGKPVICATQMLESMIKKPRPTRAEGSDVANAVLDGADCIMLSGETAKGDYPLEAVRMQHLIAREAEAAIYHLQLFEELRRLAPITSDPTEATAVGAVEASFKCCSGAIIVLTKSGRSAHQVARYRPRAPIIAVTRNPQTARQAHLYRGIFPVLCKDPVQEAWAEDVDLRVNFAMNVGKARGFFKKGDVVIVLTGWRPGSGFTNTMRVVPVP
# Chain of UniProt P00519 (whole entry, looked up): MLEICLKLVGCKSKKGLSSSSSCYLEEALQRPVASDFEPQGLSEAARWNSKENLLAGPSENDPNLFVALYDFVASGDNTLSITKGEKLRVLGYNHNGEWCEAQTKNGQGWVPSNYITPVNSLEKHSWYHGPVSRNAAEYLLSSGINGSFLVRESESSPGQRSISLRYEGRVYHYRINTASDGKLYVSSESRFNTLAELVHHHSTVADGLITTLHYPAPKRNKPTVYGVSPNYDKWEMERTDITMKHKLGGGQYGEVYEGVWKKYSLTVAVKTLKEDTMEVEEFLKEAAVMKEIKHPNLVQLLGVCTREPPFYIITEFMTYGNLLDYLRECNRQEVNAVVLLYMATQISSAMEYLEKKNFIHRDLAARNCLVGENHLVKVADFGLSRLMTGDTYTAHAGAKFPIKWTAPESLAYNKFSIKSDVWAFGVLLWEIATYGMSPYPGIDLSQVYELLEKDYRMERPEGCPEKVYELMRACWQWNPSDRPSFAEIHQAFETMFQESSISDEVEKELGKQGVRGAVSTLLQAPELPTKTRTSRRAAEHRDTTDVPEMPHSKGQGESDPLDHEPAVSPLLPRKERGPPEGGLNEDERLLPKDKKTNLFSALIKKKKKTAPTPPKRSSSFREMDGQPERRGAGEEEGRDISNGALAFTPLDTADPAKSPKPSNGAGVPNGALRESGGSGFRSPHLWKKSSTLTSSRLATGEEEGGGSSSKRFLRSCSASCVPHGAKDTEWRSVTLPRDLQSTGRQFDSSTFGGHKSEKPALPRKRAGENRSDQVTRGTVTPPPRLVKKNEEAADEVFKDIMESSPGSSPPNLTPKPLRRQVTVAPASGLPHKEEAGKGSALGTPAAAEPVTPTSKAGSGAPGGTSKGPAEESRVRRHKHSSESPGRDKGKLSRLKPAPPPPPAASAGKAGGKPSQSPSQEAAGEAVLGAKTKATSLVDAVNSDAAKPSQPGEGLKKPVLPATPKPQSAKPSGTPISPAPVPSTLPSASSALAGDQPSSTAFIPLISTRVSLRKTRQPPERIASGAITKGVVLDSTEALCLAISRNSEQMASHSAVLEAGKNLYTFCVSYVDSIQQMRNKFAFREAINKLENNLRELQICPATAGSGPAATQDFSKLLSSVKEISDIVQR
# Chain of UniProt Q9HC52 (whole entry, looked up): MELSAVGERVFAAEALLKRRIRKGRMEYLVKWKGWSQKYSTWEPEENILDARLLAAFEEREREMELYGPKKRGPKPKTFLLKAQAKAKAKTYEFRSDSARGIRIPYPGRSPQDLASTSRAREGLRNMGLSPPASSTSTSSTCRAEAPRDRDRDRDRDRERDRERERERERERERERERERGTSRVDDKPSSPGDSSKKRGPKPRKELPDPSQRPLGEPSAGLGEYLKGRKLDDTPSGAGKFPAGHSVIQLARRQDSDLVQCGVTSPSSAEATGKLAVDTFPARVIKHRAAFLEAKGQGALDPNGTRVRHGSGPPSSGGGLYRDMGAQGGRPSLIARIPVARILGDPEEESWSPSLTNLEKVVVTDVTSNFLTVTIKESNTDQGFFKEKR
# Chain of UniProt Q9NR21 (whole entry, looked up): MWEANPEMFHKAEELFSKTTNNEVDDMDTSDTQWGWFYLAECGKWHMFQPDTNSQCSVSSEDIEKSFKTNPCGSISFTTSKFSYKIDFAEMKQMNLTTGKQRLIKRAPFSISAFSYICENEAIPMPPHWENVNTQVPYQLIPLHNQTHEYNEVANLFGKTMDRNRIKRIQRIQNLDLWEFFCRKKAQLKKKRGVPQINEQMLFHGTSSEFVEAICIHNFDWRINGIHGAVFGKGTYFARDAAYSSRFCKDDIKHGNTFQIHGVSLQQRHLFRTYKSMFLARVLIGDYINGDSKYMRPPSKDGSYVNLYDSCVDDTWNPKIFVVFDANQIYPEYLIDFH
Structure (SMILES),tested on,test,test system,conditions,how to read,measurement,result
CN(C)CCCN1C(=O)CSC1c1cccc(Cl)c1 (stereo not shown),"uncharacterized protein (Apis mellifera, UniProt A0A7M6W5G5)","enzyme activity, inhibitor, Ellman",,with: 1 mM acetylthiocholine,,IC50,1.2 µM
O=C(c1cc(Cc2n[nH]c(=O)c3ccccc23)ccc1F)N1CC(CNC2CC2)C1,"PARP11 (Homo sapiens, UniProt Q9NR21)","enzyme activity, inhibitor",,,,IC50,> 10 µM
CC(C)C[C@H](NC(=O)[C@H](Cc1ccccc1)NC(=O)CNC(=O)[C@H](CCCNC(=N)N)NC(=O)[C@H](CS)NC(=O)[C@H](C)N)C(=O)N[C@@H](CS)C(=O)N[C@@H](CC(N)=O)C(=O)N[C@@H](Cc1ccc(O)cc1)C(N)=O,"Pyruvate kinase PKM (PKM, Homo sapiens, UniProt P14618)","enzyme activity, inhibitor, fluorometric",,"2 h, 37 °C, enzyme 500 nM",,IC50,466 µM
Nc1ccn(C2OC(COP(=O)(O)OP(=O)(O)OP(=O)(O)O)C(O)C2(F)F)c(=O)n1 (stereo not shown),"pyrG (Escherichia coli, UniProt P0A7E5)","glutamine-dependent CTP formation, inhibitor",,with: 5 mM MgCl2,,IC50,11 ± 0.9 µM
CC[C@H](C)[C@H](NC(=O)CNC(=O)[C@H](C)NC(=O)[C@H](CCSC)NC(=O)[C@H](CCCNC(=N)N)NC(=O)[C@H](CCCCN)NC(=O)[C@H](Cc1c[nH]c2ccccc12)NC(=O)[C@H](CO)NC(=O)[C@H](CC(C)C)NC(=O)[C@H](CS)NC(=O)[C@H](C)NC(=O)[C@@H](N)Cc1ccc(O)cc1)C(=O)N[C@@H](Cc1ccccc1)C(=O)N[C@@H](Cc1ccccc1)C(=O)N[C@@H](CC(C)C)C(=O)N1CCC[C@H]1C(=O)O,Mitogen-activated protein kinase 14,"enzyme activity, inhibitor, fluorescence",,pH 7.4,,IC50,3.94 µM
Cc1ccc(C)c(COn2nnc3ccc(S(=O)(=O)N(C)C)cc32)c1,CTSL,"enzyme activity, inhibitor, FRET",,,,IC50,> 100 µM
CC[C@H](C)[C@H](NC(=O)[C@H](Cc1ccccc1)NC(=O)[C@H](CC(C)C)NC(=O)[C@@H]1CCCN1C(=O)[C@H](CCC(=O)O)NC(=O)[C@@H]1CCCN1C(=O)[C@H](CCCNC(=N)N)NC(=O)[C@H](Cc1c[nH]cn1)NC(=O)[C@H](CCCNC(=N)N)NC(=O)[C@H](Cc1ccccc1)NC(=O)[C@H](CCCCN)NC(=O)[C@H](CCCCN)NC(=O)[C@H](C)NC(=O)[C@@H](N)Cc1ccc(O)cc1)C(=O)N1CCC[C@H]1C(=O)N1CCC[C@H]1C(=O)O,Mitogen-activated protein kinase 14,"enzyme activity, inhibitor, fluorescence",,pH 7.4,,IC50,5.1 µM
Cc1cc(C)nc(Sc2nc3sccn3c2[N+](=O)[O-])n1,CTSL,"enzyme activity, inhibitor, FRET",,,,IC50,55.4 µM
CC(C)C[C@H](NC(=O)[C@@H](NC(=O)[C@H](CC(C)C)NC(=O)[C@H](CO)NC(=O)[C@@H](NC(=O)[C@H](CC(N)=O)NC(=O)[C@H](CO)NC(=O)CNC(=O)[C@H](CCCNC(=N)N)NC(=O)[C@H](CCCNC(=N)N)NC(=O)[C@H](CCC(=O)O)NC(=O)[C@H](CCC(N)=O)NC(=O)[C@H](CC(C)C)NC(=O)CNC(=O)[C@H](C)NC(=O)[C@@H](N)Cc1ccc(O)cc1)C(C)C)[C@@H](C)O)C(=O)O,Mitogen-activated protein kinase 14,"enzyme activity, inhibitor, fluorescence",,pH 7.4,,IC50,374 µM
COc1ccccc1-c1n[nH]c2nc(NC3CCN(C(=O)Cc4ccc(F)cc4F)CC3)ncc12,,"bead binding, competition bead pull-down, measured: LINJ.28.3060",Leishmania donovani axenic amastigote extract,10 µM,reference: vehicle,relative abundance,0.95
CC(C)CN(CCCC[C@H](NC(=O)[C@H](CCCN1CCOCC1)NC(=O)[C@@H](NC(=O)[C@H](Cc1ccccc1)NC(=O)c1ccc(C(C)(C)C)cc1)C1CCC1)C(=O)N[C@@H](CO)C(N)=O)C1CC2CCC1C2 (stereo partly shown),"Chromobox protein homolog 8 (Homo sapiens, UniProt Q9HC52)","ligand displacement, TR-FRET",,,,IC50,0.3 µM
O=C(COc1ccc(Cl)cc1Cl)Nc1ccc(CN2CCCCC2)cc1,"uncharacterized protein (Apis mellifera, UniProt A0A7M6W5G5)","enzyme activity, inhibitor, Ellman",,"pH 7.4, 30 °C, with: 1 mM acetylthiocholine",,IC50,6.2 µM
O=C1NC2(CC2)COc2ncc(F)cc2[C@H]2COCCN2c2ccn3ncc1c3n2,,,"Sprague-Dawley rat, female, kidneys","oral, 2.5 mg/kg/day, 4 weeks dosing, end of recovery",,organ-to-body weight ratio,0.621 ± 0.03%
CC(C)[C@H](N)C(=O)N[C@@H](CC(N)=O)C(=O)N[C@@H](Cc1ccc(O)cc1)C(=O)N[C@@H](CC(=O)O)C(=O)O,"ACE (Homo sapiens, UniProt P12821)","enzyme activity, inhibitor",,,,IC50,~3090 µM
C[C@@H]1COCCN1c1nc(NCc2cccnc2C(F)(F)F)c2cccnc2n1,"ABCB11 (Homo sapiens, UniProt O95342)",inhibitor,,,,IC50,35 µM
O=S(=O)(N/N=C/c1ccc(OS(=O)(=O)c2cc(Cl)ccc2Cl)cc1)c1cc(Cl)ccc1Cl,CA2,"enzyme activity, inhibitor, absorbance",,,,IC50,0.14 µM
Cn1c(=O)c(-c2ccccc2Cl)cc2cnc(Nc3cccc(S(C)(=O)=O)c3)nc21,"Calmodulin-domain protein kinase 1, putative (Cryptosporidium parvum, UniProt A3FQ16)","kinase activity, inhibitor",,with: 10 µM ATP,,IC50,0.019 ± 0.002 µM
O=C(CCCN1CCC(O)(c2ccc(Cl)cc2)CC1)c1ccc(F)cc1,"ERG11 (Candida albicans, UniProt P10613)","enzyme activity, inhibitor, mass spectrometry",,,,IC50,1.09 µM
O=S(=O)(N/N=C/c1ccc(OS(=O)(=O)c2ccc(Br)cc2)cc1)c1cc(Cl)ccc1Cl,CA2,"enzyme activity, inhibitor, absorbance",,,,IC50,0.124 µM
O=C(O)CCn1c(=O)oc2cc(Cl)c(Cl)cc21,"HTR2C (Homo sapiens, UniProt P28335)",antagonist,,median value,,IC50,> 25.1 µM
CCC(C)C1OC2(CCC1C)CC1CC(C/C=C(\C)C(OC3CC(OC)C(OC4CC(OC)C(O)C(C)O4)C(C)O3)C(C)/C=C/C=C3\COC4C(O)C(C)=CC(C(=O)O1)C34O)O2 (stereo not shown),"Anoctamin-2 (ANO2, Homo sapiens, UniProt Q9NQ90)","ion flux, inhibitor",,,,IC50,16.9 µM
CC[C@H](C)[C@H](NC(=O)[C@@H](NC(=O)[C@H](CC(C)C)NC(=O)[C@H](CCCCN)NC(=O)[C@H](CCCCN)NC(=O)[C@H](Cc1c[nH]cn1)NC(=O)[C@@H](NC(=O)[C@H](CCCNC(=N)N)NC(=O)[C@H](CCCCN)NC(=O)[C@H](CC(C)C)NC(=O)[C@H](CCC(N)=O)NC(=O)[C@H](CCCCN)NC(=O)[C@H](C)NC(=O)[C@@H](N)Cc1ccc(O)cc1)[C@@H](C)O)[C@@H](C)O)C(=O)N[C@@H](CC(N)=O)C(=O)N1CCC[C@H]1C(=O)O,Mitogen-activated protein kinase 14,"enzyme activity, inhibitor, fluorescence",,pH 7.4,,IC50,36.4 µM
CCN1CCC[C@H]1CNC(=O)c1cc([N+](=O)[O-])c(N(C)C)cc1OC,"uncharacterized protein (Anopheles gambiae, UniProt Q7QFG0)","enzyme activity, inhibitor, Ellman",,"pH 7.4, 30 °C, with: 1 mM acetylthiocholine",,IC50,20 µM
CC(C)C[C@H](NC(=O)[C@H](CCC(N)=O)NC(=O)[C@H](CC(N)=O)NC(=O)[C@H](C)NC(=O)[C@@H](N)Cc1ccc(O)cc1)C(=O)N[C@@H](CCCCN)C(=O)N[C@@H](Cc1ccccc1)C(=O)N[C@@H](CCCNC(=N)N)C(=O)N[C@@H](CCCCN)C(=O)N[C@@H](CCCCN)C(=O)N[C@@H](CCCCN)C(=O)N[C@@H](CC(C)C)C(=O)N[C@@H](CCCCN)C(=O)N[C@@H](Cc1ccccc1)C(=O)N[C@@H](CS)C(=O)N[C@@H](CCCCN)C(=O)O,Mitogen-activated protein kinase 14,"enzyme activity, inhibitor, fluorescence",,pH 7.4,,IC50,0.247 µM
Cc1ccc2c(n1)c(-c1cccc(S(C)(=O)=O)c1)c(C)n2C/C(F)=C/CN,"Myeloperoxidase (MPO, Homo sapiens, UniProt P05164)","enzyme activity, inhibitor, fluorescence",,,,IC50,> 30 µM
COc1ccc(-c2csc(NN=C(C=Cc3ccc(Cl)cc3)C(=O)O)n2)cc1,BCHE,"enzyme activity, inhibitor",,,,IC50,8.02 µM
O=C(CCc1ccc(Br)cc1)N[C@H]1CCOC1=O,"lasR (Pseudomonas aeruginosa, UniProt P25084)","reporter gene, antagonist","Escherichia coli, JLD271 with LasR plasmid",with: OdDHL 50 nM,,IC50,4.14 µM
Cc1ccc(-c2csc(NN=C(C=Cc3ccc(Cl)cc3)C(=O)O)n2)cc1,BCHE,"enzyme activity, inhibitor",,,,IC50,4.07 µM
CC(C)[C@H](NC(=O)[C@H](CCCCN)NC(=O)[C@@H](NC(=O)[C@H](Cc1ccc(O)cc1)NC(=O)[C@H](CC(N)=O)NC(=O)[C@H](CCCNC(=N)N)NC(=O)[C@H](CCC(=O)O)NC(=O)[C@H](Cc1c[nH]cn1)NC(=O)[C@H](CCCNC(=N)N)NC(=O)[C@@H](NC(=O)[C@H](C)NC(=O)[C@@H](N)Cc1ccc(O)cc1)[C@@H](C)O)[C@@H](C)O)C(=O)N[C@@H](CC(N)=O)C(=O)N[C@@H](Cc1ccccc1)C(=O)N[C@@H](CS)C(=O)N[C@@H](CCCCN)C(=O)O,Mitogen-activated protein kinase 14,"enzyme activity, inhibitor, fluorescence",,pH 7.4,,IC50,94.6 µM
Cc1ccc(N2CC3CC(C2)N3)cc1C(=O)NC1(c2ccc3c4c(cccc24)C(=O)N3C)CC1,"Cytochrome P450 2D6 (CYP2D6, Homo sapiens, UniProt P10635)","enzyme activity, inhibitor",,,,IC50,> 50 µM
CSCC[C@H](NC(=O)[C@H](CC(C)C)NC(=O)[C@H](C)NC(=O)[C@@H](N)Cc1ccc(O)cc1)C(=O)N[C@@H](CCC(=O)O)C(=O)N[C@@H](CCCNC(=N)N)C(=O)N[C@@H](CCCNC(=N)N)C(=O)N[C@@H](CCCNC(=N)N)C(=O)N[C@@H](CC(C)C)C(=O)N[C@@H](CC(N)=O)C(=O)N[C@@H](CCC(N)=O)C(=O)N[C@@H](CC(C)C)C(=O)N[C@@H](CC(C)C)C(=O)N[C@@H](CC(C)C)C(=O)N1CCC[C@H]1C(=O)N[C@@H](CC(C)C)C(=O)O,Mitogen-activated protein kinase 14,"enzyme activity, inhibitor, fluorescence",,pH 7.4,,IC50,> 200 µM
CNC(=O)C[C@H](Cc1ccncc1)NC(=O)[C@@H](Cc1cccc(Br)c1)NC(=O)[C@@H](N)Cc1cccc(F)c1,CTSL,"enzyme activity, inhibitor",,,,IC50,> 10 µM
CN(C)C(=O)c1cncc(-c2cnc3[nH]cc(-c4cc(OS(=O)(=O)F)ccc4C(F)(F)F)c3c2)c1,"ABL1 (Homo sapiens, UniProt P00519)","kinase activity, inhibitor, HTRF",,"1 h preincubation, with: ATP 20 µM",,IC50,> 1 µM
O=C(NC1CCN(c2ncnc3[nH]cnc23)CC1)c1cccc(NS(=O)(=O)c2ccc(C(F)(F)F)cc2)c1,"DNMT1 (Homo sapiens, UniProt P26358)","enzyme activity, inhibitor",,,,IC50,> 100 µM

# Some of these lines once more:
Structure (SMILES),tested on,test,test system,conditions,how to read,measurement,result
O=C(NC1CCN(c2ncnc3[nH]cnc23)CC1)c1cccc(NS(=O)(=O)c2ccc(C(F)(F)F)cc2)c1,"DNMT1 (Homo sapiens, UniProt P26358)","enzyme activity, inhibitor",,,,IC50,> 100 µM
CC[C@H](C)[C@H](NC(=O)CNC(=O)[C@H](C)NC(=O)[C@H](CCSC)NC(=O)[C@H](CCCNC(=N)N)NC(=O)[C@H](CCCCN)NC(=O)[C@H](Cc1c[nH]c2ccccc12)NC(=O)[C@H](CO)NC(=O)[C@H](CC(C)C)NC(=O)[C@H](CS)NC(=O)[C@H](C)NC(=O)[C@@H](N)Cc1ccc(O)cc1)C(=O)N[C@@H](Cc1ccccc1)C(=O)N[C@@H](Cc1ccccc1)C(=O)N[C@@H](CC(C)C)C(=O)N1CCC[C@H]1C(=O)O,Mitogen-activated protein kinase 14,"enzyme activity, inhibitor, fluorescence",,pH 7.4,,IC50,3.94 µM
C[C@@H]1COCCN1c1nc(NCc2cccnc2C(F)(F)F)c2cccnc2n1,"ABCB11 (Homo sapiens, UniProt O95342)",inhibitor,,,,IC50,35 µM
O=C(c1cc(Cc2n[nH]c(=O)c3ccccc23)ccc1F)N1CC(CNC2CC2)C1,"PARP11 (Homo sapiens, UniProt Q9NR21)","enzyme activity, inhibitor",,,,IC50,> 10 µM
